Published values of several laboratories.
Protocols differ between the studies behind these lines. ± marks the error that the study gave.

N=C(N)NCCC[C@@H]1NC(=O)[C@H](CCCCNC(=O)CNC(=O)CNC(=O)CNC(=O)CC[C@H](NC(=O)CCOCCOCCOCCOCCNC(=O)CC[C@H](NC(=O)CN2CCN(CC(=O)O)CCN(CC(=O)O)CCN(CC(=O)O)CC2)C(=O)NCCOCCOCCOCCOCCC(=O)N[C@@H](CCC(=O)NCC(=O)NCC(=O)NCC(=O)NCCCC[C@@H]2NC(=O)[C@@H](Cc3ccccc3)NC(=O)[C@H](CC(=O)O)NC(=O)CNC(=O)[C@H](CCCNC(=N)N)NC2=O)C(=O)NCC(=O)NCC(=O)NCC(=O)NCCCC[C@@H]2NC(=O)[C@@H](Cc3ccccc3)NC(=O)[C@H](CC(=O)O)NC(=O)CNC(=O)[C@H](CCCNC(=N)N)NC2=O)C(=O)NCC(=O)NCC(=O)NCC(=O)NCCCC[C@@H]2NC(=O)[C@@H](Cc3ccccc3)NC(=O)[C@H](CC(=O)O)NC(=O)CNC(=O)[C@H](CCCNC(=N)N)NC2=O)NC(=O)[C@@H](Cc2ccccc2)NC(=O)[C@H](CC(=O)O)NC(=O)CNC1=O [indium-111 labelled] — tissue uptake (female athymic nude mice, blood; intravenous, 3 µCi, 0.5 h, U-87 MG glioma xenograft): 0.84 ± 0.32 %ID/g
CSCC[C@H](NC(=O)[C@H](CC(=O)O)NC(=O)[C@H](CO)NC(=O)[C@H](Cc1c[nH]cn1)NC(=O)[C@H](Cc1c[nH]c2ccccc12)NC(=O)CN1CCN(CC(=O)O)CCN(CC(=O)O)CCN(CC(=O)O)CC1)C(=O)N[C@@H](CCC(=O)O)C(=O)N[C@@H](Cc1c[nH]c2ccccc12)C(=O)N[C@@H](Cc1c[nH]c2ccccc12)C(=O)N[C@@H](Cc1ccc(O)cc1)C(=O)N[C@@H](CC(C)C)C(=O)N[C@@H](CC(C)C)C(=O)NCC(=O)N[C@@H](CCCCNC(=O)COCCOCCNC(=O)CCN1C(=O)C=CC1=O)C(=O)O [copper-64 labelled] — tissue uptake (gamma counting; nude mice bearing HT-29 tumours, blood; intravenous, 0.74 MBq (0.02 nmol), 4 h): 3.53 %ID/g
CSCC[C@H](NC(=O)[C@H](CC(C)C)NC(=O)[C@H](Cc1c[nH]cn1)NC(=O)CNC(=O)[C@@H](NC(=O)[C@H](C)NC(=O)[C@H](Cc1c[nH]c2ccccc12)NC(=O)[C@H](CCC(N)=O)NC(=O)[C@H](CC(N)=O)NC(=O)CNC(=O)[C@H](Cc1ccc(O)cc1)NC(=O)[C@H](CCCNC(=N)N)NC(=O)[C@H](CCC(N)=O)NC(=O)[C@@H]1CCCN1C(=O)CN1CCN(CC(=O)O)CCN(CC(=O)O)CCN(CC(=O)O)CC1)C(C)C)C(N)=O [indium-111 labelled] — tissue uptake (male Swiss nu/nu mice, PC-3 tumour, kidney; intravenous, 10 pmol, 1 h): 7.9 ± 1.9 %ID/g
N=C(N)NCCC[C@@H]1NC(=O)[C@H](CCCCNC(=O)CCOCCOCCOCCOCCNC(=O)CC[C@H](NC(=O)CCOCCOCCOCCOCCNC(=O)[C@H](CCCCNC(=O)c2ccc(NN)nc2)NC(=O)c2ccc(NN)nc2)C(=O)NCCOCCOCCOCCOCCC(=O)NCCCC[C@@H]2NC(=O)[C@@H](Cc3ccccc3)NC(=O)[C@H](CC(=O)O)NC(=O)CNC(=O)[C@H](CCCNC(=N)N)NC2=O)NC(=O)[C@@H](Cc2ccccc2)NC(=O)[C@H](CC(=O)O)NC(=O)CNC1=O [technetium-99m labelled] — tissue uptake (female athymic nude mice, muscle; intravenous, 0.1 MBq, 1 h, U-87 MG glioma xenograft): 0.85 ± 0.11 %ID/g
N=C(N)NCCC[C@H](NC(=O)[C@H](CCCCN)NC(=O)[C@H](CCC(N)=O)NC(=O)CCOCCOCCOCCNC(=O)CN1CCN(CC(=O)O)CCN(CC(=O)O)CCN(CC(=O)O)CC1)C(=O)N[C@@H](CCCCN)C(=O)N[C@@H](CCCNC(=N)N)C(=O)N[C@@H](CCCCN)C(=O)N[C@@H](CCCCN)C(=O)N[C@@H](CO)C(=O)N[C@@H](CCCNC(=N)N)C(=O)N[C@@H](Cc1ccc(O)cc1)C(=O)N[C@@H](CCCCN)C(=O)N[C@@H](CO)C(=O)O [copper-64 labelled] — tissue uptake (male C57BL/6 mice, B16-F10 tumour, pancreas; intravenous, 60 min): 0.39 ± 0.02 %ID/g
N=C(N)NCCC[C@@H]1NC(=O)[C@H](CCCCNC(=O)CCOCCOCCOCCOCCNC(=O)CC[C@H](NC(=O)CCOCCOCCOCCOCCNC(=O)c2ccc(NN)nc2)C(=O)NCCOCCOCCOCCOCCC(=O)NCCCC[C@@H]2NC(=O)[C@@H](Cc3ccccc3)NC(=O)[C@H](CC(=O)O)NC(=O)CNC(=O)[C@H](CCCNC(=N)N)NC2=O)NC(=O)[C@@H](Cc2ccccc2)NC(=O)[C@H](CC(=O)O)NC(=O)CNC1=O [technetium-99m labelled] — tissue uptake (female athymic nude mice, U-87 MG glioma xenograft, blood; intravenous, 2.5 µCi, 60 min): 0.27 ± 0.08 %ID/g
N=C(N)NCCC[C@@H]1NC(=O)[C@H](CCCCNC(=O)CC[C@H](NC(=O)CCOCCOCCOCCOCCNC(=O)CN2CCN(CC(=O)O)CCN(CC(=O)O)CCN(CC(=O)O)CC2)C(=O)NCCCC[C@@H]2NC(=O)[C@@H](Cc3ccccc3)NC(=O)[C@H](CC(=O)O)NC(=O)CNC(=O)[C@H](CCCNC(=N)N)NC2=O)NC(=O)[C@@H](Cc2ccccc2)NC(=O)[C@H](CC(=O)O)NC(=O)CNC1=O [indium-111 labelled] — tissue uptake (athymic nude mice, female, U-87 MG glioma xenograft, bone; intravenous, 3 µCi, 4 h): 0.7 ± 0.18 %ID/g
CCCC[C@H](NC(=O)[C@H](Cc1cccs1)NC(=O)[C@H](Cc1c[nH]cn1)NC(=O)CCNC(=O)[C@@H](NC(=O)[C@H](C)NC(=O)[C@H](Cc1c[nH]c2ccccc12)NC(=O)[C@H](CCC(N)=O)NC(=O)[C@H](Cc1cccs1)NC(=O)CN1CCC(NC(=O)CN(CCN(CCN(CC(=O)O)CC(=O)O)CC(=O)O)CC(=O)O)CC1)C(C)C)C(N)=O [indium-111 labelled] — tissue uptake (male Swiss nu/nu mice, PC-3 xenograft, blood; intravenous, 10 pmol, 1 h post injection, 111In or 99mTc labelled): 0.2 ± 0.1 %ID/g
CC(C)C[C@H](NC(=O)[C@H](Cc1ccc(O)cc1)NC(=O)[C@@H](CCCNC(=N)N)NC(=O)[C@@H](CO)NC(=O)[C@H](Cc1ccccc1)NC(=O)[C@H](CC1CCCCC1)NC(=O)[C@H](CC(=O)O)NC(=O)CCC(C(=O)O)N1CCCN2CCN(CCCN(CC(=O)O)CC2)CC1)C(=O)N[C@@H](Cc1c[nH]c2ccccc12)C(=O)N[C@@H](CO)C(=O)O (stereo partly drawn) [copper-64 labelled] — tissue uptake (female NMRI nude mice, stomach; 1 h p.i.): 1.3 ± 0.8 %ID/g
N=C(N)NCCC[C@@H]1NC(=O)[C@H](CCCCNC(=O)CCOCCOCCOCCOCCNC(=O)CN2CCN(CC(=O)O)CCN(CC(=O)O)CCN(CC(=O)O)CC2)NC(=O)[C@@H](Cc2ccccc2)NC(=O)[C@H](CC(=O)O)NC(=O)CNC1=O [indium-111 labelled] — tissue uptake (female athymic nude mice, spleen; intravenous, 3 µCi, 1 h, U-87 MG glioma xenograft): 0.83 ± 0.1 %ID/g
N=C(N)NCCC[C@@H]1NC(=O)[C@H](CC(=O)NC23CNCCNCC(N)(CNCCNC2)CNCCNC3)NC(=O)[C@@H](Cc2ccccc2)NC(=O)[C@H](CC(=O)O)NC(=O)CNC1=O [copper-64 labelled] — tissue uptake (male nude tumour-bearing mice, spleen; iv, 10 µCi, 24 h): 0.77 ± 0.17 %ID/g
CSCC[C@H](NC(=O)[C@H](CC(C)C)NC(=O)[C@H](Cc1c[nH]cn1)NC(=O)CNC(=O)[C@@H](NC(=O)[C@H](C)NC(=O)[C@H](Cc1c[nH]c2ccccc12)NC(=O)[C@H](CCC(N)=O)NC(=O)CNC(=O)[C@H](CO)NC(=O)CNC(=O)CCCCCCCNC(=O)CCC(=O)Nc1ccc(CNC23CNCCNCC(N)(CNCCNC2)CNCCNC3)cc1)C(C)C)C(N)=O [copper-64 labelled] — tissue uptake (female SCID mice, PC-3 xenograft, muscle; intravenous, 0.6 MBq, 24 h): 0.074 ± 0.008 %ID/g
CSCC[C@H](NC(=O)[C@H](CC(=O)O)NC(=O)[C@H](CO)NC(=O)[C@H](Cc1c[nH]cn1)NC(=O)[C@H](Cc1c[nH]c2ccccc12)NC(=O)CN1CCN(CC(=O)O)CCN(CC(=O)O)CCN(CC(=O)O)CC1)C(=O)N[C@@H](CCC(=O)O)C(=O)N[C@@H](Cc1c[nH]c2ccccc12)C(=O)N[C@@H](Cc1c[nH]c2ccccc12)C(=O)N[C@@H](Cc1ccc(O)cc1)C(=O)N[C@@H](CC(C)C)C(=O)N[C@@H](CC(C)C)C(=O)NCC(=O)O [copper-64 labelled] — tissue uptake (gamma counting; nude mice bearing HT-29 tumours, blood; intravenous, 0.74 MBq (0.02 nmol), 4 h): 2.11 %ID/g
N=C(N)NCCC[C@@H]1NC(=O)[C@H](CCCCNC(=O)CCOCCOCCOCCOCCNC(=O)CC[C@H](NC(=O)CCOCCOCCOCCOCCNC(=O)CC[C@H](NC(=O)CN2CCN(CC(=O)O)CCN(CC(=O)O)CCN(CC(=O)O)CC2)C(=O)NCCOCCOCCOCCOCCC(=O)N[C@@H](CCC(=O)NCCOCCOCCOCCOCCC(=O)NCCCC[C@@H]2NC(=O)[C@@H](Cc3ccccc3)NC(=O)[C@H](CC(=O)O)NC(=O)CNC(=O)[C@H](CCCNC(=N)N)NC2=O)C(=O)NCCOCCOCCOCCOCCC(=O)NCCCC[C@@H]2NC(=O)[C@@H](Cc3ccccc3)NC(=O)[C@H](CC(=O)O)NC(=O)CNC(=O)[C@H](CCCNC(=N)N)NC2=O)C(=O)NCCOCCOCCOCCOCCC(=O)NCCCC[C@@H]2NC(=O)[C@@H](Cc3ccccc3)NC(=O)[C@H](CC(=O)O)NC(=O)CNC(=O)[C@H](CCCNC(=N)N)NC2=O)NC(=O)[C@@H](Cc2ccccc2)NC(=O)[C@H](CC(=O)O)NC(=O)CNC1=O [indium-111 labelled] — tissue uptake (athymic nude mice, female, U-87 MG glioma xenograft, spleen; intravenous, 3 µCi, 4 h): 2.07 ± 0.37 %ID/g
N=C(N)NCCC[C@@H]1NC(=O)[C@H](CCCCNC(=O)CNC(=O)CNC(=O)CNC(=O)CC[C@H](NC(=O)CNC(=O)CNC(=O)CNC(=O)[C@H](CCCCNC(=O)c2ccc(NN)nc2)NC(=O)c2ccc(NN)nc2)C(=O)NCC(=O)NCC(=O)NCC(=O)NCCCC[C@@H]2NC(=O)[C@@H](Cc3ccccc3)NC(=O)[C@H](CC(=O)O)NC(=O)CNC(=O)[C@H](CCCNC(=N)N)NC2=O)NC(=O)[C@@H](Cc2ccccc2)NC(=O)[C@H](CC(=O)O)NC(=O)CNC1=O [technetium-99m labelled] — tissue uptake (female athymic nude mice, lungs; intravenous, 0.1 MBq, 1 h, U-87 MG glioma xenograft): 3.17 ± 0.5 %ID/g
